Published values pooled from the literature.
Lines come from different studies, so protocols differ. Numbers after ± are the reported error.

`CC(C)C[C@H](NC(=O)[C@H](CCC(=O)O)NC(=O)[C@H](CCC(=O)O)NC(=O)[C@H](CC(=O)O)NC(=O)[C@H](CCC(=O)O)NC(=O)[C@H](CCC(=O)O)NC(=O)[C@H](CCC(=O)O)NC(=O)[C@@H](N)CC(=O)O)C(=O)O` has a plasma concentration of 123 ng/mL (rat, plasma; intravenous, 11.0 mg/kg single dose, 90 min).
`CN[C@@](C)(C[18F])C(=O)O` gave a tissue uptake of 14 ± 2.5 %ID/g (SCID mouse U87 xenograft, spleen; 30 min, post injection).
`CC[C@H](C)[C@H](NC(=O)[C@H](CC(C)C)NC(=O)[C@H](Cc1c[nH]c2ccccc12)NC(=O)[C@H](CCC(N)=O)NC(=O)[C@@H](NC(=O)[C@H](Cc1ccccc1)NC(=O)[C@H](C)NC(=O)[C@H](CCCCNC(=O)COCCOCCNC(=O)COCCOCCNC(=O)CC[C@H](NC(=O)CCCCCCCCCCCCCCCCCCC(=O)O)C(=O)O)NC(=O)[C@H](CCC(N)=O)NC(=O)[C@H](C)NC(=O)[C@@H](NC(=O)[C@H](CCCCN)NC(=O)[C@H](CC(=O)O)NC(=O)[C@H](CC(C)C)NC(=O)C(C)(C)NC(=O)[C@@H](NC(=O)[C@H](CO)NC(=O)[C@H](Cc1ccc(O)cc1)NC(=O)[C@H](CC(=O)O)NC(=O)[C@H](CO)NC(=O)[C@@H](NC(=O)[C@H](Cc1ccccc1)NC(=O)[C@@H](NC(=O)CNC(=O)[C@H](CCC(=O)O)NC(=O)C(C)(C)NC(=O)[C@@H](N)Cc1ccc(O)cc1)[C@@H](C)O)[C@@H](C)O)[C@@H](C)CC)[C@@H](C)CC)C(C)C)C(=O)N[C@@H](C)C(=O)NCC(=O)NCC(=O)N1CCC[C@H]1C(=O)N[C@@H](CO)C(=O)N[C@@H](CO)C(=O)NCC(=O)N[C@@H](C)C(=O)N1CCC[C@H]1C(=O)N1CCC[C@H]1C(=O)N1CCC[C@H]1C(=O)N[C@@H](CO)C(N)=O` has an AUClast ratio of 1.13 (humans with end-stage renal disease; subcutaneous, 5 mg; relative to: ESRD over normal renal function).
Under “median brain concentration”, `C[C@H](Cn1cnc2c(N)ncnc21)OCP(=O)(O)O` is recorded as 65 ng/g (LC-MS/MS; rhesus monkeys, both sexes, brain, four regions combined; dose not given, 1 day after last dose, ten days dosing).
`C[N+](C)(C)[C@@H](Cc1c[nH]c(=S)[nH]1)C(=O)[O-]`: “decrease in tissue partition coefficient” 50.8% (rat treated with 1,25-dihydroxyvitamin D3, heart; intravenous; relative to: untreated control rats).
The terminal half-life of `O=C(CC(=O)c1ccccc1)c1ccccc1` is reported as 6 h (male C57BL/6J mouse, Nrf2 wild type, plasma; oral, 500 mg/kg).
`CSCC[C@@H]1NC(=O)[C@H](CC(=O)O)NC(=O)CNC(=O)[C@H](CCCNC(=N)N)NC(=O)[C@H](C)NC(=O)[C@H](CCC(=O)O)NC(=O)[C@H](CCCNC(=N)N)NC(=O)[C@@H]2CSSC[C@@H]3NC(=O)[C@H](CO)NC(=O)[C@H]([C@@H](C)O)NC(=O)[C@@H]4CCCN4C(=O)[C@H](C)NC(=O)[C@H](Cc4c[nH]c5ccccc45)NC(=O)[C@H](CC(=O)O)NC(=O)CNC(=O)[C@H](CCCNC(=N)N)NC(=O)CNC(=O)[C@H](CCC(N)=O)NC(=O)[C@@H]4CCCN4C(=O)[C@@H](NC(=O)CNC(=O)C(C)F)CSSC[C@H](NC(=O)CNC(=O)[C@H](C)NC(=O)[C@H](CC(C)C)NC(=O)[C@H](CSSC[C@@H](C(=O)NCC(N)=O)NC(=O)[C@H]([C@@H](C)O)NC(=O)[C@H](CCCNC(=N)N)NC(=O)[C@@H]4CCCN4C1=O)NC(=O)[C@H](CC(=O)O)NC(=O)[C@H](CO)NC(=O)[C@H](CC(=O)O)NC(=O)[C@H](CCC(N)=O)NC(=O)[C@H](CO)NC3=O)C(=O)N[C@@H](C(C)C)C(=O)N2` (stereo partly drawn) [fluorine-18 labelled] has a tissue uptake of 1.28 ± 0.32 %ID/g (nude mice U-87 MG xenograft, intestine; intravenous, 0.5 h).
The Tmax of `O=c1[nH]c(Cc2ccccn2)nc2c1cnn2C1CCOCC1` is reported as 0.33 h (male human, plasma; oral, 50 mg, single dose).
`CC[C@H]1CN2CCc3cc(OC)c(OC)cc3[C@@H]2C[C@@H]1C[C@@H]1c2cc(OC)c(OC)cc2CCN1C(=O)[C@@H]1CCCN1C(=O)[C@H](C)N` — result for “time to convulsions and death”: 1 to 2 min (mouse, male; intravenous, 16 mg/kg, single toxic dose).
For `COC(=O)N[C@H](C(=O)N1CCC[C@H]1C(=O)Nc1ccc([C@@H]2CC[C@@H](c3ccc(NC(=O)[C@@H]4CCCN4C(=O)[C@@H](NC(=O)OC)C(C)C)cc3)N2c2ccc(C(C)(C)C)cc2)cc1)C(C)C`, the AUC(0-24) was 1310 ng·h/mL (healthy human volunteers, plasma; oral, dose not given, added: escitalopram plus 2D regimen).
The tissue/plasma ratio of `[123I]c1cncc(OC[C@@H]2CCN2)c1` is reported as 18.7 (SPECT; human, brain cortex; intravenous bolus plus infusion, 8.1 mCi; relative to: plasma).
`CC(C)C(=O)OC[C@H]1O[C@@H](n2ccc(NO)nc2=O)[C@H](O)[C@@H]1O` has a remaining compound of 105.2 ± 0.92% (rat blood dialysate; 5 ng/mL, time not given, three freeze-thaw cycles, added: NHC 25 ng/mL).

For quick reference, copied from above:
`CC[C@H]1CN2CCc3cc(OC)c(OC)cc3[C@@H]2C[C@@H]1C[C@@H]1c2cc(OC)c(OC)cc2CCN1C(=O)[C@@H]1CCCN1C(=O)[C@H](C)N` — result for “time to convulsions and death”: 1 to 2 min (mouse, male; intravenous, 16 mg/kg, single toxic dose).
For `COC(=O)N[C@H](C(=O)N1CCC[C@H]1C(=O)Nc1ccc([C@@H]2CC[C@@H](c3ccc(NC(=O)[C@@H]4CCCN4C(=O)[C@@H](NC(=O)OC)C(C)C)cc3)N2c2ccc(C(C)(C)C)cc2)cc1)C(C)C`, the AUC(0-24) was 1310 ng·h/mL (healthy human volunteers, plasma; oral, dose not given, added: escitalopram plus 2D regimen).
